# Experimental data from different studies.
# A part holds a random share of what one study measured. Changes are numbered by the printed parent chain.

# Study 1 — technique: protein binding microarray; form: double-stranded DNA, one strand shown; sample: in vitro; tested at: not given; relative to: not given; direction: higher = stronger binding
# Target: Histone acetyltransferase KAT6A, winged helix 2, GST fusion (KAT6A, Homo sapiens, UniProt Q92794, residues 85-181)
# Notes: 8-mer, flanks averaged, mean of 2 arrays, mostly near background
# Residues (chain): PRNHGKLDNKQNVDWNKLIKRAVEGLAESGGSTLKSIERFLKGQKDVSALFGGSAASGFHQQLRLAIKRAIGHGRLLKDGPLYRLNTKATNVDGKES
Strand,E-score
TATATTAA,0.107
GATAGGAA,0.0841
AGAGGGCA,0.0394
CGACAGAG,-0.111
ATCTCAGG,-0.163
GGGTTTCA,0.0172
GCGCTCCC,0.0887
AGATGGCC,-0.0738
GAAGCCTA,-0.0485
CCGCTGGA,0.209
AAGCAATC,-0.0314
ATTGCAGG,0.132
GTATGAAC,-0.0437
CGTCTAAG,-0.0293
AATGGGCT,-0.073
GAGTGAGA,0.0718
CACGCTCA,-0.0188
ATCAAGTG,-0.128
ATAGATTA,0.0459
CTGGTTTC,0.162
GTTGACTA,-0.215
AGATGCAT,-0.0675
ACGTTTTG,-0.203
ACATAGGA,-0.24
AAATTACT,-0.0155

# Study 2 — technique: competition protein-binding microarray; form: double-stranded DNA, one strand shown; sample: in vitro; tested at: 2 µM; added: Cbf1 competitor, 0.05 µM; direction: higher = stronger binding; all sequences stand within: … GTCTTGATTCGCTTGACGCTGCTG
# Target: Phosphate system positive regulatory protein PHO4, full length, GST-tagged (PHO4, Saccharomyces cerevisiae, UniProt P07270, residues 1-312)
# UniProt P07270, sequence (whole entry, looked up): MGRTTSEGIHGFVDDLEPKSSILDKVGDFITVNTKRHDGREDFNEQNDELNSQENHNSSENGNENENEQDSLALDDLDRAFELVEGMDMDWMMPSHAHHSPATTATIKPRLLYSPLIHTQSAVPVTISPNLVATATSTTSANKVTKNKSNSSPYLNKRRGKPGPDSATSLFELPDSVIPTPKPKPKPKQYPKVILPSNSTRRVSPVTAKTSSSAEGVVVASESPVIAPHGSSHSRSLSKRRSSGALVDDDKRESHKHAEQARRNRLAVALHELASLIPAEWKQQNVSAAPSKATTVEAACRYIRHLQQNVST
# Notes: whole 60-bp probe, lowest competitor level
Strand,fluorescence intensity [a.u.]
TAACATTCTGTAGTTCATGTGTACTAAAAAAAAAAA,4340
GTCTTGTCTCATTGTCACGACACTTTCCCCACTTCA,5440
CGTCCTAGTGATTTTCACGTGCGCTCCATGAGGAAG,12900
CGGGGTTAAGTTTGAACTGTGGGTGGCTTGCAGCAG,4730
CTTCTGTAAATTTTTCACGTGTGCTGACGCGCCCCG,11900
CAGAAGCCAAATTGGCGCGTGAGTCTGAGCTGCCTT,5450
ACTATGATATTATTCCATGTGTCGCAAAACCAGAAA,8260
TCAAGCTATGGGATGCGCGTGCTTTGCAACTGGCTA,10900
TCGGAAATTACATGGTGCGTGCTGTGGCTTTTTGTG,10700
CTTTCCCGATCTTGGGCCGTGGGTGTAGCACATTTG,5610
TGGCCGTATCGCTCCATACGAGCCAATCAGGGCCCC,2250
GGACATAACATCGGACTTGTGACGGACGAATCTTTG,3640
CTTCTGTAAATTTGGTTGGTGGGTGGACGCGCCCCG,4710
AAAGCGGTAATTTTTCACGTGTGTTCACATATCTAT,14000
TGCGCAACAACTTGCTAGGTGGGTGTATGTCTAGAA,4870
CGGGGTTAAGTTTGGCCCGTGGGTGGCTTGCAGCAG,9180

# Study 3 — target: CCND2, cyclin fold, Cln2 fusion (human); technique: yeast growth competition, sequencing; sample: yeast; notes: strong parent motif; relative to: not given; direction: higher = stronger binding
# Parent: PKN2 docking peptide (human); VSAVRKLDFSDTM
Change,normalised enrichment score
A3N,0.414
K6M,1.8
A3M,0.278
F9G,0.348
S10H,2.48
S10R,2.73
S10V,2.03
V4P,0.541
T12D,3.81
F9D,0.0459
D11W,2.15
A3R,0.643
A3Y,0.00276
L7S,0.527
T12H,3.56
S10Q,2.92
V4T,1.32
D11H,2.45
V4M,2.57
D8M,0.342
T12E,4.06
A3S,1.33
S2D,1.16
S10N,3.36
V4L,0.614

# Study 4 — technique: RNAcompete; form: RNA; sample: in vitro; tested at: 20 nM; notes: 7-mer, probes averaged, single round; relative to: mean of 7-mers; direction: higher = stronger binding
# Target: PABPC1L2, full length, GST fusion (mouse, UniProt A0ABA7IW68)
# Residues (chain): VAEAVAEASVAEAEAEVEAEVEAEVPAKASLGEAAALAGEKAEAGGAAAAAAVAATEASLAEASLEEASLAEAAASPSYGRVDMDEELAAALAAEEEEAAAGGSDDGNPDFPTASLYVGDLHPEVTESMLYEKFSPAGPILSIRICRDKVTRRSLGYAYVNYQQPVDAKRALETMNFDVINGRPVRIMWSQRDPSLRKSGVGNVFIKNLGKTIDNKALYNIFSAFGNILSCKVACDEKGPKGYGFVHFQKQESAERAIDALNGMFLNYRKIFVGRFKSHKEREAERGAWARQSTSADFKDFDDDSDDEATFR
Strand,7-mer Z-score
UCUGCGU,-0.376
UGACACG,-0.0935
UUGUUAU,-0.434
UUCUCAC,-0.431
UUAGUCA,-0.289
CGCUUCC,-0.34
UGCAACC,-0.0808
CUUUUGU,-0.331
AAUACAC,0.254
GUGUAAU,-0.124
GAUUGAU,-0.166
CGGUCGA,-0.141
GCGCGAU,-0.155
UUUGGCG,-0.295
AGCGAGA,0.171
GCCCACA,-0.429
GAAAUAC,0.929
CCAAAUA,0.514
GUAGGCA,0.14
CAUAUUC,-0.115
GCUGUUC,-0.36
ACUAACC,-0.0881
CGUAAGG,-0.202
UCACCGA,-0.0681
CGGACUU,-0.162

# Study 5 — technique: DHFR PCA, dose-response; sample: yeast; notes: Hill fit, not affinity; added: (+)-ABA, dose series; direction: lower = more sensitive
# Target: ABI1, truncated, D143A, DHFR fusion (Arabidopsis thaliana, UniProt P49597)
# Parent: PYL1, truncated, DHFR fusion (Arabidopsis thaliana, UniProt Q8VZS8); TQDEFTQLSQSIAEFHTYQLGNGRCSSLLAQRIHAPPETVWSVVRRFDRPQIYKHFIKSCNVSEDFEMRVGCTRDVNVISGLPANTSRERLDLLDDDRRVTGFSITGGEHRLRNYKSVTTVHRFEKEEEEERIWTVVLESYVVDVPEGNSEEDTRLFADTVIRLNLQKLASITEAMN
Change,ABA EC50 [nM]
N77E,3850
R99W,2460
N177S,1330
N177K,2850
I133V,2330
N77C,5180
T101F,4680
V78R,685

# Study 6 — technique: RNA Bind-n-Seq; form: RNA; sample: in vitro; tested at: 365 nM; relative to: no-protein control; direction: higher = stronger binding
# Target: RNA binding protein fox-1 homolog 2, RRM domain, GST-SBP tag (RBFOX2, Homo sapiens, UniProt O43251-10, residues 100-194)
# Notes: natural RNA segment, single round, ends assumed
# All sequences stand within: GGGAGUUCUACAGUCCGACGAUC … UGGAAUUCUCGGGUGCCAA
# Target sequence (chain): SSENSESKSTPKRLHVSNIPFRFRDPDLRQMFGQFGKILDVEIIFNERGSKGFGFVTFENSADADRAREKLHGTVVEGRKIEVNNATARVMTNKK
Strand,RBNS enrichment (R)
CUCCAGGUCAUGUCCCUGUGGUUCUGGGGCCACCACUUGUGUAAAAUAAAGUACAGCCUGGACGCUAGUCUUUUGUCAUUUAUUCAGAGGACCAGUGUAGAGUCGGACAA,0.51
CCAGCAGAGCCCCCAGGGCCAGGCCCCACCCACCUGCCACCUGUCCUCCCUGGGACACUUGUAAGUACAAAGCUCCCCAGCCUUUGAGGCCUCAACCCCCCACCAUCUGU,0.506
CUCUGGGUAGUGAGGGAUGACCAGUCUUGUCCUGAGAAAUGUUUCUCUUAGUCUUUAAGUUCAAAGACUAACCUGUAGCAAUCAGACUUUCCAAAAGGGGGUUCUCCAUU,0.233
AGCUUCUAAUGUUAUGAUCUAGCUAGAUUUUUAUUUAAAAUAUGAAAAACUGCUUUUCCCAAGACGUUUUUUAAAAGGAAAAAAAGCUACAAUUUUAAUAUUUGACAUAU,0.521
UCGACUCUAAAAGAUUUGCCAAAUAACAAAAGCAUACAAUGCAUACUGUUGGAGAACAAGAAUGCUACUGUAUUUUACAUCUUUAUUUCUUGGUGAAACAAAAGUUUUAA,0.356
AAUCCAGGAUGGCAGAGAUCCCCUGUCCCUGGAAGGUGUCAUAUAUUACUAGCUAGUAUUAGGUUGAAGUUGGGGGUGGGGGCUUUCUCCGUAGGCUUGGGGAUGGUUCC,0.281
UUCUAUAUGGUAGAAUUACCAAAAGCUAUUCAGAUUUCUUAAUAAAGGGCAAAUCAACCAAGCCUGACAUCAUGUGCAGUGUGUUCUUUUGUGACGUGCAAAGGUCACAU,0.54
UUUCUCUAUGAAAGUAAAGCUGUUUGAAAAAUUAUUAUUUUUUUACAGAUCUUUCUAUAAAAAAUAAACAUCUUUUGAUUGCUUGGAUUUAGGAAUUCAAUUUUUGUUUC,0.976
GGGAUGGGGCCAUCUCCUUCACCGUGGCUACCAUUGUCACUCGUAGGGGAUGUGGAGUGAGAACAGCAUUUAGUGAAGUUGUGCAACGGCCAGGGUUGUGCUUUCUAGCA,2.75
ACAUUUUUCAUGUUAAAGAGCCGUGUCUCCCGCCAGCACUCCUCACCCCGGUAUGAAUGUGUUUCCUCCACAUUGUAUAUCCUUCCACCCUCUGGCUGCCUAGAUCAGUA,0.568
CUUGAGCCAUGUGGUCUCUUUACAAUCAAGAGACUGUACAUAUGUGAAAAAAUACAAAUUAAGGACCUGUGUUCAUAGACAAUCUAAACUGUGUUUCUGAAGUUUGUGCA,0.928
UUCCUCCUGGAAAUUGACGAGGGGUGUCUUGGGCAGAGCUGGCUCUGAGCGCCUCCAUCCAAGGCCAGGUUCUCCGUUAGCUCCUGUGGCCCCACCCUGGGCCCUGGGCU,0.214

# Some of these lines once more (study 4):
Strand,7-mer Z-score
UCACCGA,-0.0681
UUCUCAC,-0.431
CGGUCGA,-0.141
GUAGGCA,0.14
GUGUAAU,-0.124
GAAAUAC,0.929
CUUUUGU,-0.331
CGGACUU,-0.162
